# Measured values from different studies.
# Each numbered part is a random draw from the data of one study; scales do not carry over between parts.
# Chain of UniProt Q8VWQ5 (99-173, looked up): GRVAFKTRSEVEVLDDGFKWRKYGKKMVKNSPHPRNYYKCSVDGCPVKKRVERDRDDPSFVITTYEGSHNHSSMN

# Sample 1
# Cell line: HEK-293T/ACE2
# Tested at: 10 µM
# Time: 16 h
# Reference: vehicle
Compound,viability [%]
C[C@H](CCC(=O)O)[C@H]1CC[C@H]2[C@@H]3[C@H](O)C[C@@H]4C[C@H](O)CC[C@]4(C)[C@H]3CC[C@]12C,102
Oc1ncnc2[nH]ncc12,101
CCOC(=O)C1=C(COCCN)NC(C)=C(C(=O)OC)C1c1ccccc1Cl (stereo not drawn),97.6

# Sample 2
# Target: Hepatocyte nuclear factor 3-alpha (Foxa1, Mus musculus, UniProt P35582, residues 1-468, full length assumed)
# Chain of UniProt P35582 (whole entry, looked up): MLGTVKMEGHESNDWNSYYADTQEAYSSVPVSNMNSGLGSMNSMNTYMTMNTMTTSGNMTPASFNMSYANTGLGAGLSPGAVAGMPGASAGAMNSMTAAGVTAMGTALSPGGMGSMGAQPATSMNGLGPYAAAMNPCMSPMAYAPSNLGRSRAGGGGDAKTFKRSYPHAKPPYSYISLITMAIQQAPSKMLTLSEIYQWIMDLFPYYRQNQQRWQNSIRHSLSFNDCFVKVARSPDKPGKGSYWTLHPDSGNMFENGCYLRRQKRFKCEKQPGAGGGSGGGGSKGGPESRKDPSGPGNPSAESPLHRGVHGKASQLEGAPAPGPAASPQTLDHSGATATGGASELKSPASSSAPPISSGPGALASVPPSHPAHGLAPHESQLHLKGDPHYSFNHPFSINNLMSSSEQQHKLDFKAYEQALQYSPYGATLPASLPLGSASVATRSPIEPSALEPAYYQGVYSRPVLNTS
# Technique: EMSA with sequencing
# Molecule type: double-stranded DNA, one strand shown
# Matrix: in vitro
# Tested at: 10 and 20 nM
# Notes: whole designed probe, mean of two concentrations, ends assumed
# Reference: negative control set to 0
# Direction: higher = stronger binding
# Constant ends, left off below: GTGAGCGGTGCCCATTGATGGGGAAC … TTTCACTGGGATCGTGGGGAC
Sequence,normalised bound fraction [ratio]
ATCTTCCCCCTCTTCCTTGCCCCACCAGCTCACCTACGGGGGTTATTTGCACAAAGGAAAATAAATAAAGCCGGCATTCGTTAACGCAGTTCACGCGCATACTGCTGTTTGCTCTGGATCTAACATGGTCCTTTGGCGACGCCAGGCTCCGGGAGAGCAAAGCACCGTGTCAGGGCCATGATCCGGGGTGGCC,0.39
TCCTCAGGCTAAAAGCCAGCAAAAAGAATCACCTGGCCAAACATCCCCTTTCAGTCTGCTTTCCTTAGAATGGCCTCCCAGGGGAGCTCTCTGGGCAAACAAAGCTGTTGACCTAGTTTGAAGGCCTGGAAAATTATCATGTGAGTCACTGGGACAACAGAGCAAAGTGCCAGGCCCCTGAGAAACTGTAAGC,0.186
CCCTCATCCTGGGTGTCGGGGTGGGAGGTGTTCTCATCATGAATGGGAGGCGTACCCAGATCCAGCTCTGCCTTTTTTTAACCAAACCACATTTGTTTACACTCGCTGTTAATCGACATAGCAAGTGACTCACCAGATATGATACATGCCAGGAGAGAAAAAGAAAGTGCTGATGGAAAAATAATCTCATTAG,0.33
TAAAATGGAAGCATGCAAGTTTAGATTGAAAGAGAAAATATAAGCTTCAAAAACTCTTTAGTTCTACATTTTACAAAAGTAATCTTTTTACAAAGTAATCTTAAAGTAATCTTTATGATAGTAATTACTATCATACCACAGGTATAAACAGTAACTTGGAAAAATTTTCCCTTTTAAGACCTTGCATAAAACA,-0.0548
TCAACTCAGACTGCTTGAAAAAGGAATAGTGAGTTCAAAGATGCAAAGATGCCAGCGGCTGCATGTTACATTTTTGAGAGGTAGCCTTCAAAGTAATCTAGAAAAATGGGATTTTTTATGTTAATATGTGATTCATTTTAGAAAGAATGTTTCTTCGCTTAGTCTCTCCACATAAGATACTTACAGGTTTCCA,-0.0846
CCCTCATCCTGGGTGTCGGGGTGGGAGGTGTTCTCATCATGAATGGGAGGCGTACCCAGATCCAGCTCTGCCTTTTTTTAACCAAACCACATTTGTTTACACTCGCTGTTAATCGACATAGTGACTCACCAGCAAGATATGATACATGCCAGGAGAGAAAAAGAAAGTGCTGATGGAAAAATAATCTCATTAG,0.335
ATGACTGACATAGATACATCTCTCAGAGTGAATAGGAAATCATTAACAACTATTTCATGAGTGAAGTTTCAATATATTTTTTAAAATTCAGAGTAATCTTCAAGATGGACTTTATTTTACCTAACACAACAATTCGGTCACCCTGTCATCCTAAAAATCTCTATAAGTAAAACTGATTGTAAGGATATGTTAA,-0.0295
ATCTTCCCCCTCTTCCTTGCCCCACCAGCTCACCTTCCCGGGTTATTTGCAGATAGGAAAATAAATAAAGCCGGCATTCGTTAACCCTCTGTAGATCGCTTGTCCGACTTGCTCTGGATGAATCATGGTCCTTTGGCGACGCCAGGCTCCGGGAGAGCAAAGCACCGTGTCAGGGCCATGATCCGGGGTGGCC,0.338

# Sample 3
# Target: Replicase polyprotein 1ab, nsp13 helicase (rep, Severe acute respiratory syndrome coronavirus 2, UniProt P0DTD1)
# Mode: inhibitor
# Tested at: 20 µM
Structure (SMILES),inhibition [%]
C[C@H](NC(=O)CNC(=O)c1cccc(Cl)c1)c1ccccc1,6.01
C[N+]1(C)CCCC(OC(=O)C(O)(c2ccccc2)c2ccccc2)C1 (stereo not drawn),-3.05
CC[C@H]1CN2CCc3cc(OC)c(OC)cc3[C@@H]2C[C@@H]1C[C@H]1NCCc2cc(OC)c(OC)cc21,5.48
COc1cc2c(Oc3ccc4[nH]c(C)cc4c3F)ccnc2cc1OCC1(N)CC1,-0.5
CCOC(=O)Nc1cc2c(c(N)n1)N=C(c1ccccc1)[C@H](C)N2,7.38
Cc1cc(N2CCCCC2)nc2ccccc12,-2.27
CC(C)Oc1ccc(Cc2ccc(NC3=NCCN3)cc2)cc1,-0.54
COc1ccc(/C=C\c2cc(OC)c(OC)c(OC)c2)cc1OP(=O)(O)O,1.56
Cc1ccc(OC[C@@H](O)[C@H](C)NC(C)C)c2c1CCC2,4.53
O=C1NCC2(CCN(CCc3ccccc3)CC2)O1,-5.05
Cn1nnnc1SCC1=C(C(=O)O)N2C(=O)[C@@H](NC(=O)[C@H](OC=O)c3ccccc3)[C@H]2SC1,-2.72
CSc1ccc(C(=O)N[C@@H]2CCCC[C@@H]2NC(=O)CNC(=O)c2cc(C(F)(F)F)ccc2NC(=O)NC(C)C)cc1,-3.42
O=C(NCCN1CCN(c2ncccn2)CC1)C12CC3CC(CC(C3)C1)C2,1.3
CCC(C)n1ncn(-c2ccc(N3CCN(c4ccc(OC[C@H]5CO[C@](Cn6cncn6)(c6ccc(Cl)cc6Cl)O5)cc4)CC3)cc2)c1=O (stereo partly drawn),0.56
c1cc(CN2CCCCC2)cc(OCCCNc2nc3ccccc3s2)c1,1.85
CC(C(=O)O)c1cccc(Oc2ccccc2)c1 (stereo not drawn),1.01
Nc1nc(N)c2nc(-c3ccccc3)c(N)nc2n1,-0.6
C[C@@H]1C[C@H]2[C@@H]3CCC4=CC(=O)C=C[C@]4(C)[C@@]3(Cl)[C@@H](O)C[C@]2(C)[C@@]1(OC(=O)c1ccco1)C(=O)CCl,0.17
Nc1ncnc2c1ncn2[C@H]1CC[C@@H](CO)O1,6.08
CCCCCCCC/C=C/C(=O)O,2.96
N#Cc1cc2c(OCC(O)CN3CCN(C(c4ccccc4)c4ccccc4)CC3)cccc2[nH]1 (racemic),3.99
O=C(O)c1ccc(S(=O)(=O)N(Cl)Cl)cc1,-3.9
CNCc1cc(-c2ccccc2F)n(S(=O)(=O)c2cccnc2)c1,-0.78
CCOC(=O)c1ccccc1OC(N)=O,8.69
CC[C@@H]1/C=C(\C)C[C@H](C)C[C@H](OC)[C@H]2O[C@@](O)(C(=O)C(=O)N3CCCC[C@H]3C(=O)O[C@H](/C(C)=C/[C@@H]3CC[C@@H](O)[C@H](OC)C3)[C@H](C)[C@@H](O)CC1=O)[C@H](C)C[C@@H]2OC,0.77

# Sample 4
# Target: Phosphate system positive regulatory protein PHO4, full length, GST-tagged (PHO4, Saccharomyces cerevisiae, UniProt P07270, residues 1-312)
# Technique: competition protein-binding microarray
# Molecule type: double-stranded DNA, one strand shown
# Matrix: in vitro
# Tested at: 2 µM
# Notes: whole 60-bp probe, lowest competitor level
# With: Cbf1 competitor, 0.05 µM
# Direction: higher = stronger binding
# Constant ends, left off below: … GTCTTGATTCGCTTGACGCTGCTG
# Construct (chain): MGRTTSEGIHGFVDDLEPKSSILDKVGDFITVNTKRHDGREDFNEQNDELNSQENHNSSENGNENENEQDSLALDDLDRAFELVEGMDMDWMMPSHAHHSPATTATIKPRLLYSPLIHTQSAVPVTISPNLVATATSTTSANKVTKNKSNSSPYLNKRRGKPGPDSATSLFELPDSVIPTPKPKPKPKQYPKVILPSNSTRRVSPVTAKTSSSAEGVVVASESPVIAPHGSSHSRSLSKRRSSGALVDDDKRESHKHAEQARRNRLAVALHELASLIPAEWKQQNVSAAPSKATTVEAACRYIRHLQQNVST
Sequence,fluorescence intensity [a.u.]
ATCGATGCTTTTGGCCACATGGGAGCCATATGCCAT,13100
CTGCCATTCAAGCCAAGCGTGTCTGTATCCAAAAGA,6230
CGGGGTTAAGTTTTTCACGTGGTGTGCTTGCAGCAG,14400
AGAGGGCGGCACCATCACGATCCCTCTGCCTTTGAA,4790
ACTAAACAGTATATTCACGTGATGGCTTTGCCTTAC,14900
ATATATATATGCGGCTGCGTGCGGATATTCTCCCGG,5440
GTTGAAGTCAAGTTGAACGTGATGGGATACTGATTT,8250
AAAGAGGGTCCATTCGGCGTGCTTTTGGTACTGTGA,6390

# Sample 5
# Target: POU domain, class 5, transcription factor 1, POU domain (Pou5f1, Mus musculus, UniProt P20263, residues 131-289)
# Chain of UniProt P20263 (131-289, looked up): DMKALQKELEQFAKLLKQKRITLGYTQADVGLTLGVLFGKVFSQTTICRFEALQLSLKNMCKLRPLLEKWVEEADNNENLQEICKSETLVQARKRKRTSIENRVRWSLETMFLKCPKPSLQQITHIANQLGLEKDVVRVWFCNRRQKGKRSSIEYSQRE
# Technique: Spec-seq
# Molecule type: double-stranded DNA, one strand shown
# Matrix: in vitro
# Tested at: not given
# Notes: whole probe, mean of replicates
# Reference: not given
# Direction: lower = stronger binding
# Constant ends, left off below: GAGTCGTCTCGTCAGCAC … CCGTAGAGCACTCAGGTC
Sequence,relative binding energy [ln ratio]
ATGCGTCC,0.472
AGAGTAAT,0.662
GTTGTAAT,0.718
ATGCCGGC,0.895
ATGCGTTT,0.058
ATACGAAT,0.184

# Sample 6
# Target: Replicase polyprotein 1ab, main protease (rep, Severe acute respiratory syndrome coronavirus 2, UniProt P0DTD1)
# Read-out: enzyme activity
# Mode: inhibitor
# Tested at: 20 µM
# Notes: hit confirmation, no DTT
SMILES,inhibition [%]
CC[N+](C)(CC)CCC[n+]1c(-c2ccccc2)c2cc(N)ccc2c2ccc(N)cc21,90.9
N[C@@H](C(=O)N[C@@H]1C(=O)N2C(C(=O)O)=C(Cl)CS[C@H]12)c1ccccc1,74.4
Nc1ccc2cc3ccc(N)cc3nc2c1,76.5

# Further values, each from its own experiment
Sequence,target,assay,system,setting,how to read,endpoint,value
AAAAAATTCCGCGTGTATGTGTACGTAAAA,"Probable WRKY transcription factor 50, DNA-binding domain (WRKY50, Arabidopsis thaliana, UniProt Q8VWQ5, residues 99-173)",DNA-protein interaction ELISA,"double-stranded DNA, one strand shown, in vitro, bacterial lysate","not given, whole dsDNA probe, crude lysate protein","reference: highest signal in screen, higher = stronger binding",relative absorbance,72.7 % of maximum

# Some of these lines once more (sample 3):
Structure (SMILES),inhibition [%]
N#Cc1cc2c(OCC(O)CN3CCN(C(c4ccccc4)c4ccccc4)CC3)cccc2[nH]1 (racemic),3.99
c1cc(CN2CCCCC2)cc(OCCCNc2nc3ccccc3s2)c1,1.85
CCC(C)n1ncn(-c2ccc(N3CCN(c4ccc(OC[C@H]5CO[C@](Cn6cncn6)(c6ccc(Cl)cc6Cl)O5)cc4)CC3)cc2)c1=O (stereo partly drawn),0.56
C[C@@H]1C[C@H]2[C@@H]3CCC4=CC(=O)C=C[C@]4(C)[C@@]3(Cl)[C@@H](O)C[C@]2(C)[C@@]1(OC(=O)c1ccco1)C(=O)CCl,0.17
